# Published values from different studies.
# Compare with care: the assays were run in different laboratories. “And” joins repeats or separate records; there may be more than shown. ± gives the spread as reported.
SMILES,cell line,assay,system,conditions,scale,quantity,result
CN1CCCNC(=O)c2cccc(c2)C(=O)NCCCN(C)CCCNc2cccc3c2C(=O)c2cccc(c2C3=O)NCCC1,SAS,"RNA-Seq, item: PPP1R12A mRNA",,"1 µM, 6 h",relative to: untreated cells,log2 fold change,-0.484
N#Cc1cccc(/C=C/C(=O)c2ccc(O)cc2)c1,U-87 MG,item: FBXO32,,concentration not given,relative to: untreated,fold change,40.8
Cc1ccc(-n2cc(CSc3nc4ccccc4n3Cc3cn(-c4ccc(C)cc4)nn3)nn2)cc1,HEK293,MTT,,31.3 ppm,,cytotoxicity,51.9%
C=C1C(=O)OC2C1CCC(C)(O)C13C=CC(C)(C21)C1(C3)C(=O)OC2C3C(C)C(=O)CC3C(=C)CC(OC(C)=O)C21 (stereo not shown),AML12,,,"concentration not given, concentration-dependent, added: palmitate/oleate",,total cholesterol content,decreased
COc1ccc(NC(=O)c2ccc3[nH]c(-c4ccc(N(C)C)cc4)nc3c2)cn1,HCT116,IncuCyte,,"concentration not given, 0 h",,dead cell to confluence ratio,0.55 and 1.04 and 1.51
CN1CCN(C(=O)c2ccc(-c3cc4c(N5CCC[C@H](C(=O)NCc6ccc(OC(F)(F)F)cc6)C5)ncnc4[nH]3)cc2)CC1,KARPAS-299,"cell growth or viability, MTT",,"0.04 µg/mL, 72 h",,inhibition,68.7%
O=CCNCCOn1c(=O)n(OCCNCCO)c(=O)n(OCCNCCOn2c(=O)n(OCCNCCO)c(=O)n(OCCNCCO)c2=O)c1=O,A549,"cell growth or viability, MTT",,"12.5 µg/mL, 24 h",,viability,52.6%
COC(=O)C1=C(C)Oc2ccc(Br)cc2C1C(C(C)=O)C(=O)OC (stereo not shown),3T3-L1,"cell growth or viability, MTT",,72 h,,IC20,111 µg/mL
C=C1C(=O)OC2C1CCC(C)(O)C13C=CC(C)(C21)C1(C3)C(=O)OC2C3C(C)=CC(=O)C3=C(C)CC(OC(C)=O)C21 (stereo not shown),AML12 mouse hepatocytes,"lipid accumulation, Nile Red staining",,"maximum safe concentration, 24 h, added: palmitic acid/oleic acid",,maximum inhibition,16.7 ± 2.13%
Cc1cc(NC2CCN(C)CC2)ccc1-c1cc2c(N3CCC[C@H](C(=O)NCc4ccc(OC(F)(F)F)cc4)C3)ncnc2[nH]1,KARPAS-299,"cell growth or viability, MTT",,"1 µg/mL, 72 h",,inhibition,86.9%
CN(C)Cc1nc(Nc2ccc(-c3cnc4cc(F)ccn34)c3c2C(=O)NC3)ccc1C1CCOC1 (stereo not shown),human CD4 T cells,"cytokine induction, item: IFNγ",,added: anti-CD3/CD28,,EC50,11 nM
CCN(C(=O)c1cc(F)ccc1Oc1nncnc1N1CCC2(C1)CN([C@H](CCCN(C)CCOC)C(C)C)C2)C(C)C,BT-20,cell growth or viability,,72 h,,GI50,> 10000 nM
CSC(=S)N/N=C(\C)c1ccc(Nc2nnc(-c3ccc(Cl)cc3)c3ccccc23)cc1,MCF7,"cell growth or viability, MTT",,2.5 µM,,cell death,89.6%
CN(C)c1ccc(-n2cc(COC(=O)[C@@]3(C)C=C(C(=O)OC(C)(C)C)C(=O)CC3)nn2)cc1,HeLa,quantitative western blot,,"concentration not given, 30 (unit not given), added: EGF",,pERK/ERK ratio,0.0532
CNS(=O)(=O)Nc1nccc(Cc2c(C)c3ccc(Oc4ncccc4F)cc3oc2=O)c1F,KARPAS-299,cell viability,,7 days,,IC50,> 1000 nM
Cn1ncc2cc(-c3cncc(Cl)c3N3CCC4(CCNC4=O)CC3)ccc21,LS174T,"gene expression, microarray, item: JAK3 mRNA",,"concentration not given, 4 h",relative to: untreated cells,log2 fold change,-1.01
O=C(C[Se]C(=O)C12CC3CC(CC(C3)C1)C2)Nc1cccc(C(F)(F)F)c1,NCI60 CNS cancer panel,five-dose screen,,,,GI50,2480 nM
COC(=O)c1cc(NC2=NC(=O)C(=Cc3ccc(N(C)C)cc3)S2)ccc1OC(C)=O,MCF7,item: ESCO2 mRNA,,"0.81 µM (IC50), 24 h",relative to: DMSO,fold change,0.272
CC(C)c1ccc(N(C)c2ccc3c(c2)OCC[C@H]3CNc2cnccc2C(=O)O)cc1,Kasumi 1,"cell growth or viability, ATP luminescence",,7 days,,IC50,≥ 10000 nM
C=CC(=O)N1[C@@H](c2ccc3c(c2)OCO3)c2[nH]c3ccccc3c2C[C@H]1C(=O)NC1CC1,rat DRG neurons,,,"0.3704 µM, 48 h, added: vincristine 40 nM",,neuron degeneration,81.1% and 75.7%
Cc1cc(NC(=O)c2cccc(N)c2)ccc1Nc1nccc(-c2cccnc2)n1,HEK293 AP1 reporter cells,"AP-1 reporter gene, inhibitor",,"3 µM, 6 h, unit not given, added: PMA",relative to: PMA alone,reporter activity,0.315
Cn1c(=O)n(C2CCC(=O)NC2=O)c2ccc(C3CCN(CC(=O)Nc4cccc(CS(=O)(=O)N5CC[C@H](Nc6cccc(-c7sc(C(=O)O)c(OCC(=O)O)c7Cl)c6)CC5(C)C)c4)CC3)cc21 (stereo partly shown),B16-F10,"HTRF, item: phospho-STAT1 Tyr701",,"0.123 µM, added: IFN-γ",relative to: min-max normalised,pSTAT1 level,85.7% and 89.8% and 84.3% and 81.1% and 81.4% and 80.6%
CCN(CC)CC(=O)Nc1cccc(-n2cc(-c3ccc4ccc(-c5cn(-c6cccc(NC(=O)CN(CC)CC)c6)nn5)cc4c3)nn2)c1,RCC4,"PCR angiogenesis array, item: AKT1",,"5 x IC50, 4 h, normoxia",relative to: untreated,fold regulation,-1.15
CCCCCC(=O)[O][Pt]([Cl])([Cl])[O]C(=O)CCCCC.N.N,A549/DDP cisplatin-resistant,,,added: survivin siRNA transfection,relative to: non-transfected over transfected,IC50 fold reduction,1.9 fold
C[C@@H](Nc1nc2c(cnn2C(C)(C)C)c(=O)n1Cc1cccc(F)c1)c1ccc(Cl)cc1,BV-2,,,"concentration not given, added: LPS 0.5 µg/mL",,NO production,decreased
CCNc1cc2c(cc1C)C1(c3cc(C)c(NCC)cc3O2)c2ccccc2C(=O)N1N=Cc1c[c-]c(-c2ccccn2)cc1.Cc1c(C)c(-c2ccc(-c3ccccc3)cc2)[c-](C)c1C.[Cl-].[Ir+3],A549,annexin V-FITC/PI flow cytometry,,"0.5 x IC50, 24 h",,late apoptotic cells,10.8 ± 0.27%
CO[C@@H]1[C@@H](OC(N)=O)[C@@H](O)[C@H](Oc2ccc3c(O)c(NC(=O)c4ccc(O)c(CC=C(C)C)c4)c(=O)oc3c2C)OC1(C)C,HCT-116 BRCA2-/-,,,"200 µM, replicate 1",,colony count,0.55
Cc1ncsc1-c1ccc(C(C)NC(=O)C2CC(O)CN2C(=O)C(NC(=O)CCCCCCCCCCN2CCCC(Nc3ncc(Cl)c(Nc4ccccc4S(=O)(=O)C(C)C)n3)C2)C(C)(C)C)cc1 (stereo not shown),22Rv1,"RNA-seq, item: TULP3 mRNA",,concentration not given,relative to: DMSO,log2 fold change,-1.29
CCCCN1C(=O)c2cccc3c(NCCCCCCCCCCN4CCOCC4)ccc(c23)C1=O,BHK-21,confocal lambda scanning,,,relative to: water,emission blue shift in ER,21 nm
CCN(CC)CCNC(=S)Nc1ccc2nc(N3CCN(CC)CC3)cc(C)c2c1,U2OS SSA-GFP reporter,"single-strand annealing repair, flow cytometry",,5 µM,,GFP-positive cells,6.54%
COc1ccccc1-c1ccncc1C(=O)Nc1nnc(OCc2ccc(Cl)cc2)s1,DLD-1 parental,,,"4 µM, single replicate",,colony count,82 and 72 and 67 and 81 and 77
COc1cc(N2CCN(C(=O)C3CCCN3)CC2)ccc1Nc1ncc(Cl)c(Nc2ccccc2P(C)(C)=O)n1 (stereo not shown),NCI-H3122,CCK-8,,"250 nM, 48 h",,viability,21%
CCOc1cncc(-c2ccc(NC(=O)C3(c4ccnc(NS(=O)(=O)C5CC5)n4)CCOCC3)nc2)n1,colon cancer,"cell viability, CellTiter-Glo",DMSO 0.1%,"72 h, line code 280",,IC50,85 nM
N#Cc1c(N)nc2c(c1-c1ccc(CO)o1)Cc1cc(O)ccc1-2,exhausted human CD8+ T cells,flow cytometry,,"20 µM, 24 h, cycle 6",,"level, TIM-3, and LAG-3",decreased

# A few entries again:
SMILES,cell line,assay,system,conditions,scale,quantity,result
O=C(C[Se]C(=O)C12CC3CC(CC(C3)C1)C2)Nc1cccc(C(F)(F)F)c1,NCI60 CNS cancer panel,five-dose screen,,,,GI50,2480 nM
COC(=O)c1cc(NC2=NC(=O)C(=Cc3ccc(N(C)C)cc3)S2)ccc1OC(C)=O,MCF7,item: ESCO2 mRNA,,"0.81 µM (IC50), 24 h",relative to: DMSO,fold change,0.272
CC(C)c1ccc(N(C)c2ccc3c(c2)OCC[C@H]3CNc2cnccc2C(=O)O)cc1,Kasumi 1,"cell growth or viability, ATP luminescence",,7 days,,IC50,≥ 10000 nM
